Results pooled from the literature.
Every numbered part comes from another study and shows a few of its results, in no order. Positions count from the first letter of the parent shown.

Block 1 — method: RNA Bind-n-Seq; molecule type: RNA; sample: in vitro; concentration: not given; baseline: input RNA pool; reading: higher = stronger binding; endpoint: bound/input enrichment
Target: RING finger protein unkempt homolog, zinc fingers 1-6, GST-SBP tag (UNK, Homo sapiens, UniProt Q9C0B0, residues 30-357)
Notes: RNA with constant flanks, human and mouse sites, ends assumed
All sequences stand within: GGGAGUUCUACAGUCCGACGAUC … CAACAGAGGAUUGAGCAUCA
Construct (chain): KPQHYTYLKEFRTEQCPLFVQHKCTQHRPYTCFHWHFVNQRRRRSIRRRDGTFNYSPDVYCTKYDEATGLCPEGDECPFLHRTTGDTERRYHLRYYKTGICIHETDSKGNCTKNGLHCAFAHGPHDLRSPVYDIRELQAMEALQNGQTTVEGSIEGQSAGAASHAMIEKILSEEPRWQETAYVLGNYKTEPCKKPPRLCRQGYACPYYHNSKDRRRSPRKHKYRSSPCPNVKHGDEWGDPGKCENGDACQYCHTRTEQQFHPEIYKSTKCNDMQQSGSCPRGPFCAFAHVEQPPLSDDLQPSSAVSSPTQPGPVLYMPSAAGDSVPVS
AGUCGAGGCGCAACAAGACCCAACGGGCCAAAUACGGGAAAUAAAAUAUGCCAGUUCAAACUAGUACUUCUGGGAGAGUCCGCUGUUGGCAAAUCAAGCCUAGUGCUUCGUUUUGUGAAA: 0.275 ratio
AAUGUGGAAACAGUAGAAUAUAAGAACAUUUGUUUCACAGUAUGGGAUGUUGGUGGUCAAGAUAAAAUUAGGCCUCUCUGGAGGCAUUACUUCCAGAAUACCCAGGGUCUCAUUUUUGUG: 1.15 ratio
AAGUUGAAUCAUGUAGCUGCUGGUCUCGUUUCACCAAGUCUGAAAUCGGAUACCUCUAGUAAAGAAAUAGAGGAAGCUAUGAAAAGAGUACGAGAAGCACAGUCCCUAAUUUCUGCUGCU: 0.0705 ratio
AUAGAAGACAGGGAUAAUACCUUUAUCUCUGGCCACUCAAAAAUGCAGUGCCAGGAGUGCUAAACCUAGAGGCCAAUACUGAUGACCUGGAAGGUGAUCCAUAUGAUUGUCACCACAAAG: 0.329 ratio
CUAUACUGGAAGCAUGCGCCCAAGACCUGCAAGAACUUCGCGGAGCUGGCUCGGCGGGGCUACUACAAUGGCACCAAGUUCCACAGGAUCAUCAAGGACUUCAUGAUCCAAGGCGGCGAC: 0.127 ratio
AGCAAAGAAGAAGUUAUCCGCUUUUUGGAAAGUACCCCGGCCAGCCUGAAUCUGGAAGACAUAGAAGACCUGUUCUCUUUGGCUCAGUAUUACUGUAGUAAGACGCCAGCUUCUUUUAGG: 0.425 ratio
CACCCCACCCCACCCCCGGUGGUACCUUAAAGAGAUUAAAUGCAAACAUUCCUUGCUGAGUUUGUAGCUUAAAGGCCUGAGAAGCACUGGCACCUUUUCUCUAUGAUGGUUUGCUAGUCG: 0.7 ratio

Block 2 — target: CCND1, cyclin fold, Cln2 fusion (human); method: yeast growth competition, sequencing; sample: yeast; notes: strong parent motif; baseline: not given; reading: higher = stronger binding; endpoint: normalised enrichment score
Starting sequence: PKN2 docking peptide (human); VSAVQKLDFSDTM
A3R: 0.423
T12P: 2.69
V4D: 0.573
S2T: 1.92
V1W: 1.98
L7F: 1.23
T12G: 2.39
F9Y: 0.49
V1T: 2.43
K6W: 1.44
S10H: 1.18

Block 3 — method: DHFR PCA, deep sequencing; sample: yeast; added: (+)-ABA 4.8 µM; baseline: wild-type fitted maximum; reading: higher = stronger binding; endpoint: relative binding score
Target: ABI1, truncated, D143A, DHFR fusion (Arabidopsis thaliana)
Notes: methotrexate growth selection, single substitutions
Starting sequence: PYL1, truncated, DHFR fusion (Arabidopsis thaliana); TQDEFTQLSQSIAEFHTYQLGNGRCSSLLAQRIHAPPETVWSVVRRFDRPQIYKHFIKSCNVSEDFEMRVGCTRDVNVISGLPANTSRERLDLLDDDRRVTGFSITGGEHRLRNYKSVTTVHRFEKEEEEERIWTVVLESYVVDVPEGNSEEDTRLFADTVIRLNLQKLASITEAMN
R46A: 64.8%
G21F: 40.9%
D92V: 4.73%
H16I: -0.199%
E152A: 74.1%
C60F: 2.67%
R123Y: 45.3%
I133P: 96.9%
Y141D: -12.4%
S80C: 22.2%
S87T: 28.3%

Block 4 — method: RNA Bind-n-Seq; molecule type: RNA; sample: in vitro; concentration: 1 µM; notes: whole 134-nt RNA, ends assumed; added: 150 mM KCl; baseline: input library; reading: higher = stronger binding; endpoint: log2 enrichment
Target: Ras GTPase-activating protein-binding protein 1, C-terminal RGG region (G3BP1, Homo sapiens, UniProt Q13283)
Chain of UniProt Q13283 (whole entry, looked up): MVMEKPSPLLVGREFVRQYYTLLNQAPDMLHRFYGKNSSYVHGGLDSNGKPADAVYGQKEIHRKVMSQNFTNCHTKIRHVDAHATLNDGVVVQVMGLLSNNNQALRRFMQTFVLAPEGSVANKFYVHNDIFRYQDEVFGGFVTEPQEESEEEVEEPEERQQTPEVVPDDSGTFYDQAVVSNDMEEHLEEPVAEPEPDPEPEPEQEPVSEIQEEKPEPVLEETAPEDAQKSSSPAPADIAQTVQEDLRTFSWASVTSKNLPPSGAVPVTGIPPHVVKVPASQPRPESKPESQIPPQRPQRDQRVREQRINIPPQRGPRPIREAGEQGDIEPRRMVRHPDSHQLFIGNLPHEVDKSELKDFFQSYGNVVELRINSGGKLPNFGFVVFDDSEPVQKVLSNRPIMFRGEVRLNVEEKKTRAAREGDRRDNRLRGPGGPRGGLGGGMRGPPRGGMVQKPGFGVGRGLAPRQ
All sequences stand within: GGGAGUUCUACAGUCCGACGAUC … UGGAAUUCUCGGGUGUCAAGG
ACCAUGCAGGUGGGCAUCUUUGGGAAGUGGGGCAAGGGGGGGAUAGGGAGGGGGGUAACACUUUGGGAAGAGGUGGUCCCAGGUCGUUUC: 2.11
UCCUGUGCUACACAUCGUAUGUACCGAAUCGGGGUUUUUGGGGUUUUUGGUUUUUGGGGAAAGUAUUAUGUUACGCCGUUCGGAUCUGCA: -0.352
ACCAUGCAGGUGGGCAUCUUUGGGCAGUGGGGCAAGGGGGGGAUAGGGAGGGGGGUAACACUUUGGGAACAGGUGGUCCCAGGUCGUUUC: -0.881
UGGCCCUGGUGGCAUGCGGGGAGGAAGAGGUGGCCUCAUGGAUCGUGGUGGUCCCAGUGGAAUGUUCAGAGGUGGCCGUGGUGGAGACAG: 1.72
UGUUCCUGUUGAUGAAAAUCUUUUCACUGGAGAGGAUUUGGAUGAACUAGAAGAAGAAUUAAAUACACUUGAUUUAGAAGAAUGACACCA: -1.44
UCAUUAGAAGAUCUAAUUGAGAGAGAGGUAACUGGUAUCCUUUUCCUACCAUAAAAACUGAAAGCAGUAUUUAUUGUGAAAUUCUAAUAC: -1.23
UAACUUUAGAGGAGGAUCUGAUGGAUAUGGCAGUGGACGUGGAUUUGGGGAUGGCUAUAAUGGGUAUGGAGGAAGACCUGGAGGUGGCAA: -0.848
AGUCCUGUGCUACACAUCGUAUGUACCGAAUCGGGGUUUGGGGUGGGGAAAAAGGGGAAAGUAUUAUGUUACGCCGUUCGGAUCUGCACU: 1.23
CCUCAAGUCCUGUGCUACACAUCGUAUGUACCGAAUCGGGCCGGCCGGCCGGGAAAGUAUUAUGUUACGCCGUUCGGAUCUGCACUUCCA: -0.948

Some of these lines once more (block 3):
H16I: -0.199%
E152A: 74.1%
C60F: 2.67%
R123Y: 45.3%
I133P: 96.9%
